Experimental data gathered from unrelated publications.
Parts stem from different laboratories: compare values within a part only. Substitutions count along the parent as printed.

Study 1 — method: DHFR PCA, deep sequencing; matrix: yeast; added: (+)-ABA 0.032 µM; baseline: wild-type fitted maximum; direction: higher = stronger binding; quantity: relative binding score
Target: ABI1, truncated, D143A, DHFR fusion (Arabidopsis thaliana)
Notes: methotrexate growth selection, single substitutions
Starting sequence: PYL1, truncated, DHFR fusion (Arabidopsis thaliana); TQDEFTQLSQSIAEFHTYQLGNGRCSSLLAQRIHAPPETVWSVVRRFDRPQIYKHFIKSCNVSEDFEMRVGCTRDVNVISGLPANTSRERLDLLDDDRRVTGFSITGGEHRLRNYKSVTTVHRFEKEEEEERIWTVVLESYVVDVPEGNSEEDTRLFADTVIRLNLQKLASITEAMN
L156T: 17.3%
K58N: -0.0415%
R90V: 4.33%
L94F: 37.7%
R163P: 7.11%
F47Y: -4.58%
S117K: 0.65%
E130V: 20.9%
E147V: 9.73%
H55Q: 29%
R99Q: 8.24%

Study 2 — method: protein-binding microarray; form: double-stranded DNA, one strand shown; matrix: in vitro; tested at: 250 nM; notes: 60-bp whole probe; added: salmon DNA 0.4 mg/ml; baseline: random background probes; direction: higher = stronger binding; quantity: log fluorescence; shared flanks, not repeated: GCCTAGCAC … GTCTTGATTCGCTTGACGCTGCTG
Target: Interferon regulatory factor 7, full length, phosphomimetic (IRF7, Homo sapiens, UniProt Q92985, residues 1-503, S101K/S471D/S472D/S475D/S476D/S477D/S483D/S484D/S487D)
Construct (chain): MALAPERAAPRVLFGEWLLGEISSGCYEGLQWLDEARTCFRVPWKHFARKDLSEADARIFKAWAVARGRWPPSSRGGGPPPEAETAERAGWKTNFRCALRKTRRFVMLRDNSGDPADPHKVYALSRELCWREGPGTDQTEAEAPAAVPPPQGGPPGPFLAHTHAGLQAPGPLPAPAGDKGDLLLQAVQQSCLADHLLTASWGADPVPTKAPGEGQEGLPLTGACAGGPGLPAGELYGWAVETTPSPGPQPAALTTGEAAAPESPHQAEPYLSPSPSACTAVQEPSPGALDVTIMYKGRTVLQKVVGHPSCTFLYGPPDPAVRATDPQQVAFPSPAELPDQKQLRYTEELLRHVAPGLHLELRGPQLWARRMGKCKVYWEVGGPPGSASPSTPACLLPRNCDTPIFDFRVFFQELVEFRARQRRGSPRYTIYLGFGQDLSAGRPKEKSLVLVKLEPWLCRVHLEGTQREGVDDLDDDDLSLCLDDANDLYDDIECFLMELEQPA
TTAGATCTCAGACCGGATTAGTGCTAG: 0.249 z-score
GACGATATCGGGTCTGGAGACGTGCTA: -0.514 z-score
TCAGTTTCCATTTTCAGACTGTGCTAG: 8.3 z-score
TTAGGTATCCTACTGCTGTAGTGCTAG: 0.051 z-score
TTAGGACTGGGGACTGGGTTGGTGCTA: -0.289 z-score
TTAGGTTTCCTTTTTCTTTAGTGCTAG: 5.22 z-score
TTAGGTTCCGGTTTCGGATAGTGCTAG: 9.49 z-score
TTAGGTATCGGTTGCGGTTAGTGCTAG: 1.36 z-score
TTAGATTCCAGTTCCGATTAGTGCTAG: 3.64 z-score
TGGGGGGATCAGGGAAACAGGTGCTAG: 3.06 z-score
AGGGTGTTCTTTTCTGTTGTCGTGCTA: -0.126 z-score
TTAGGTTTCGGGTTTCGGTTTGTGCTA: 13.4 z-score
GACAGACTGCTTCTCCTGACGTGCTAG: -0.358 z-score
TCACATCTCCAGTAGCCTACTGTGCTA: 0.287 z-score
TTGGGACTGGACTATCGGTTAGTGCTA: -0.759 z-score

Study 3 — target: CCNA1, cyclin fold, Cln2 fusion (human); method: yeast growth competition, sequencing; matrix: yeast; notes: weak parent motif; baseline: not given; direction: higher = stronger binding; quantity: normalised enrichment score
Starting sequence: CDKN1A docking peptide (human); SKACRRLFGPVDS
SKACRRLRGPVDS [F8R]: 0.163
SKACRRLYGPVDS [F8Y]: 0.0397
SDACRRLFGPVDS [K2D]: 0.459
SKACRRLFGPVFS [D12F]: 0.384
SKACRRLFGKVDS [P10K]: 0.341
SKFCRRLFGPVDS [A3F]: 0.0693
SKACYRLFGPVDS [R5Y]: -0.216
SKACRRLFVPVDS [G9V]: 0.742
SKACRRQFGPVDS [L7Q]: 0.272
SKACRRLTGPVDS [F8T]: -0.445
SKACRLLFGPVDS [R6L]: -0.215
SKACRRLFGPVPS [D12P]: 0.305
SKACFRLFGPVDS [R5F]: -0.137
SKACRRLFGMVDS [P10M]: 0.12

Single results of other studies
PhoQ, residues 284 288 289 292 302 303 AGCYAI
fold induction (PhoP, residues 12 14 15 18 19 AQCLL (Escherichia coli, UniProt P23836); Sort-seq, measured: YFP reporter; E. coli; PhoQ-PhoP variant library, added: 10 µM Mg2+; baseline: high Mg2+ state, higher = stronger signaling): 3.21
